Assay results pooled from the literature.
Each line is one published result; not all experiments were run side by side. Numbers after ± are the reported error.

SMILES	test	system	conditions	tissue uptake [%ID/g]
CCCC[C@H](NC(=O)CNC(=O)CNC(=O)[C@H](CCCCNC(=O)[C@H](CC(=O)O)NC(=O)C(C)c1ccc(CC(C)C)cc1)NC(=O)CN1CCN(CC(=O)O)CCN(CC(=O)O)CCN(CC(=O)O)CC1)C(=O)N[C@H]1CC(=O)NCCCC[C@@H](C(N)=O)NC(=O)[C@H](Cc2c[nH]c3ccccc23)NC(=O)[C@H](CCCNC(=N)N)NC(=O)[C@@H](Cc2ccccc2)NC(=O)[C@H](Cc2c[nH]cn2)NC1=O (stereo partly shown) [lutetium-177 labelled]	–	C57 mice, tumour-bearing, stomach	2 h	0.78 ± 0.26
O=C(O)CCCOc1ccc([18F])cc1-c1cc(-c2ccccc2C(F)(F)F)n(-c2ccccc2)n1	–	mice, small intestine	intravenous, 360 min	2.75 ± 0.45
CCCC[C@H](NC(=O)CCCCCCCNC(=O)CN1CCN(CC(=O)O)CCN(CC(=O)O)CC1)C(=O)N[C@H]1CC(=O)NCCCC[C@@H](C(N)=O)NC(=O)[C@H](Cc2c[nH]c3ccccc23)NC(=O)[C@H](CCCNC(=N)N)NC(=O)[C@@H](Cc2ccccc2)NC(=O)[C@H](Cc2c[nH]cn2)NC1=O [fluorine-18 labelled]	–	C57 mice B16-F10 melanoma, skin	intravenous, 0.37 MBq, 0.5 h	2.67 ± 0.28
O=C(NCC1OC2CCC=CCCC2O1)c1ccc([18F])nc1 (stereo not shown)	–	healthy female BALB/c nude mice, large intestine	intravenous, 7.4 MBq per mouse, 10 min	3.4 ± 0.3
CCCC[C@H](NC(=O)COCCOCCNC(=O)CN1CCN(CC(=O)O)CCN(CC(=O)O)CC1)C(=O)N[C@H]1CC(=O)NCCCC[C@@H](C(N)=O)NC(=O)[C@H](Cc2c[nH]c3ccccc23)NC(=O)[C@H](CCCNC(=N)N)NC(=O)[C@@H](Cc2ccccc2)NC(=O)[C@H](Cc2c[nH]cn2)NC1=O [fluorine-18 labelled]	–	C57 mice, B16/F10 melanoma, stomach	intravenous, 1 h, with: NDP-MSH 10 µg	0.81 ± 0.36
CCCC[C@H](NC(=O)CNC(=O)CNC(=O)[C@H](CCCCNC(=O)C(C)c1ccc(CC(C)C)cc1)NC(=O)CN1CCN(CC(=O)O)CCN(CC(=O)O)CCN(CC(=O)O)CC1)C(=O)N[C@H]1CC(=O)NCCCC[C@@H](C(N)=O)NC(=O)[C@H](Cc2c[nH]c3ccccc23)NC(=O)[C@H](CCCNC(=N)N)NC(=O)[C@@H](Cc2ccccc2)NC(=O)[C@H](Cc2c[nH]cn2)NC1=O (stereo partly shown) [lutetium-177 labelled]	–	C57 mice, tumour-bearing, brain	2 h	0.07 ± 0.01
N#C[C@@H]1CCCN1C(=O)CNC(=O)c1ccnc2ccc(OCCCN3CCN(C(=O)CCc4ccc5c(c4)CN4CCN(Cc6cc(CCC(=O)O)ccc6O)CC(=O)[O][Al-]([18F])([O]C(=O)C4)[O]5)CC3)cc12 (stereo partly shown)	–	BALB/c nude mice, U-87 MG xenograft, stomach	1 h, blocking, with: DOTA-FAPI-04 40 nmol/mouse co-injected	1.77 ± 0.88
COc1ccc(Nc2nc(Nc3ccc(OCCOCCOCC[18F])cc3)ncc2Br)cc1	–	ICR mice, S180 tumour-bearing, heart	intravenous, 370 kBq, 120 min	1.86 ± 0.13
Cc1cc(C)n(CCN(CCN)CCCCCCNC(=O)[C@@H](N)Cc2c[nH]cn2)n1.[99Tc+].[C-]#[O+].[C-]#[O+].[C-]#[O+]	–	BALB/c nude mice A549 xenograft, liver	intravenous, 15 min	21.1 ± 3.4
O=C([O-])CN1CCN(CC(=O)[O-])CCN(CC(=O)NC[C@H]2CC[C@H](C(=O)N[C@H](Cc3cnc4ccccc4c3)C(=O)NCCCC[C@H](NC(=O)N[C@@H](CCC(=O)O)C(=O)O)C(=O)O)CC2)CCN(CC(=O)[O-])CC1.[64Cu+2]	ex vivo gamma counting	22Rv1 tumour-bearing mice, tumor	intravenous, 0.74 MBq, 24 h post-injection	12.2
Cc1cc(C)n(CCN(CCN)CCCCCCNC(=O)[C@@H](N)Cc2c[nH]c3ccccc23)n1.[99Tc+].[C-]#[O+].[C-]#[O+].[C-]#[O+]	–	BALB/c nude mice A549 xenograft, blood	intravenous, 15 min	1.8 ± 0.69
O=C(NCC1OC2CCC=CCCC2O1)c1ccc(COCCOCCOCC[18F])cc1 (stereo not shown)	–	healthy female BALB/c nude mice, heart	intravenous, 7.4 MBq per mouse, 120 min	1.7 ± 0.1
COc1ccc2c(c1)C(C)(C)C(/C=C/C1=C(Oc3ccc(C(=O)NCCCCOc4cc(CN(Cc5ccccn5)Cc5ccccn5)cc(CN(Cc5ccccn5)Cc5ccccn5)c4)cc3)C(=C/C=C3/N(CCCCS(=O)(=O)[O-])c4ccc(OC)cc4C3(C)C)CCC1)=[N+]2CCCCS(=O)(=O)[O-].O=[N+]([O-])[O-].O=[N+]([O-])[O-].[99Tc+].[C-]#[O+].[C-]#[O+].[C-]#[O+].[Zn+2]	–	BALB/c mice, S. aureus myositis, brain	12 h post-injection	0.03
CCCC[C@H](NC(=O)CNC(=O)CNC(=O)[C@H](CCCCNC(=O)[C@H](CC(N)=O)NC(=O)C(C)c1ccc(CC(C)C)cc1)NC(=O)CN1CCN(CC(=O)O)CCN(CC(=O)O)CCN(CC(=O)O)CC1)C(=O)N[C@H]1CC(=O)NCCCC[C@@H](C(N)=O)NC(=O)[C@H](Cc2c[nH]c3ccccc23)NC(=O)[C@H](CCCNC(=N)N)NC(=O)[C@@H](Cc2ccccc2)NC(=O)[C@H](Cc2c[nH]cn2)NC1=O (stereo partly shown) [lutetium-177 labelled]	–	C57 mice, tumour-bearing, liver	2 h	10.9 ± 0.83
CC(C)C[C@H](NC(=O)[C@@H](CCCCNC(=O)[C@@H](Cc1ccccc1)NC(=O)CCCCCCCNC(=O)CN1CCN(CC(=O)O)CCN(CC(=O)O)CCN(CC(=O)O)CC1)NC(=O)[C@H](Cc1ccc(O)cc1)NC(=O)[C@H](CO)NC(=O)[C@H](Cc1c[nH]c2ccccc12)NC(=O)[C@H](Cc1c[nH]cn1)NC(=O)[C@@H]1CCC(=O)N1)C(=O)N[C@@H](CCCNC(=N)N)C(=O)N1CCC[C@H]1C(=O)NCC(N)=O [indium-111 labelled]	–	male athymic nude mice, DU-145 prostate cancer xenograft, lung	intravenous, dose not given, 1 h, with: unlabeled blocking peptide 10 µg	0.72 ± 0.16
COc1ccc(Nc2nc(Nc3ccc(OCCOCC[18F])cc3)ncc2Br)cc1	–	ICR mice, S180 tumour-bearing, muscle	intravenous, 370 kBq, 60 min	2.37 ± 0.14
